Published values gathered from unrelated publications.
Each line is one published result; not all experiments were run side by side. Several values in a cell are separate wells, animals, samples, runs or records. Numbers after ± are the reported error.
Sequence of UniProt Q9UL54 (whole entry, looked up): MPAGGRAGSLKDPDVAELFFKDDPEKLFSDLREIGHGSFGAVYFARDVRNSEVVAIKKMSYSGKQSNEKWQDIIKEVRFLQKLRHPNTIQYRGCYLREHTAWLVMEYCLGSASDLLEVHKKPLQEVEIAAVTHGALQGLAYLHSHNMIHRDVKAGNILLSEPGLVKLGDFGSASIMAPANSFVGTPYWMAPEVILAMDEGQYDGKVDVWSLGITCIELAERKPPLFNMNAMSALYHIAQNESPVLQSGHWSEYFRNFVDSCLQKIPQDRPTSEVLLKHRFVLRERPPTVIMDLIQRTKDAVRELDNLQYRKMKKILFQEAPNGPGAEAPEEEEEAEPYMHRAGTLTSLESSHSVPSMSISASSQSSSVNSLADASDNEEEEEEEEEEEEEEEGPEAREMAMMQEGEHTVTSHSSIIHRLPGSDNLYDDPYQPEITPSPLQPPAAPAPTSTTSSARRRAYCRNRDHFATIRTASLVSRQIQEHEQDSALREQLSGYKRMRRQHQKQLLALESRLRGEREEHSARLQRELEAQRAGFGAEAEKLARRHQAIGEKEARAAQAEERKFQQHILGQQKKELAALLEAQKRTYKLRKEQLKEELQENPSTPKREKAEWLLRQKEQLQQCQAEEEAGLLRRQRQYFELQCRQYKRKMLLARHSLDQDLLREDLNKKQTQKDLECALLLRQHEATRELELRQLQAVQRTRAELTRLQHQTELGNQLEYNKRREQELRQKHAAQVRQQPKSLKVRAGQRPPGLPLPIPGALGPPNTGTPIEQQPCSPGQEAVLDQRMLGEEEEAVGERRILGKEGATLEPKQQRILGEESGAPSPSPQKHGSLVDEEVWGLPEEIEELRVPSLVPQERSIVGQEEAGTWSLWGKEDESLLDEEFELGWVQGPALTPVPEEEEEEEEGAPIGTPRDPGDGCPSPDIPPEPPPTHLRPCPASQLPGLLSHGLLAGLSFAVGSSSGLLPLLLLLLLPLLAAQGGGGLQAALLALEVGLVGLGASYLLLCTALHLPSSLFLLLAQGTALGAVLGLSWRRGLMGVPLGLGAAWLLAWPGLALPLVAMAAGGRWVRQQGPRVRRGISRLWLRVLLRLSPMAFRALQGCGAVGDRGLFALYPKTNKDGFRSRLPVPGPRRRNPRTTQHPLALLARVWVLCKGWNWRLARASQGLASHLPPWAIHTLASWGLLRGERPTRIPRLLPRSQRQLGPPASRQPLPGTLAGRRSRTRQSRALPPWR

Cn1ncc2cc(-c3cncc(Cl)c3N3CCC4(CCNC4=O)CC3)ccc21
log2 fold change (LS174T; gene expression, microarray, refers to: CACNA1H mRNA; concentration not given, 24 h; baseline: untreated cells): 2.26

C=C1CC[C@H](OCCCNC(=O)CCOCCOCCOCCOCCOCCOCCOCCOCCOCCOCCOCCOCCOCCOCCOCCOCCOCCOCCOCCOCCOCCOCCOCCOCCOCCOCCOCCOCCOCCOCCOCCOCCOCCOCCOCCOCCNC(=O)CCN2C(=O)CC(SC[C@H](NC(=O)[C@H](Cc3ccccc3)NC(=O)[C@H](CC(N)=O)NC(=O)[C@H](Cc3c[nH]cn3)NC(=O)[C@@H](NC(=O)[C@H](CC(=O)O)NC(=O)[C@H](CCC(N)=O)NC(=O)[C@H](CC(C)C)NC(=O)[C@H](CCCCN)NC(=O)[C@H](CCCCN)NC(=O)[C@H](CCCNC(=N)N)NC(=O)[C@H](CC(C)C)NC(=O)[C@H](Cc3c[nH]c4ccccc34)NC(=O)[C@H](CCC(=O)O)NC(=O)[C@@H](NC(=O)[C@H](CCCNC(=N)N)NC(=O)[C@H](CCC(=O)O)NC(=O)[C@H](CCSC)NC(=O)[C@H](CO)NC(=O)[C@H](CC(N)=O)NC(=O)[C@H](CC(C)C)NC(=O)[C@H](Cc3c[nH]cn3)NC(=O)[C@H](CCCCN)NC(=O)CNC(=O)[C@H](CC(C)C)NC(=O)[C@H](CC(N)=O)NC(=O)[C@H](Cc3c[nH]cn3)NC(=O)[C@H](CCSC)NC(=O)[C@H](CC(C)C)NC(=O)[C@H](CCC(N)=O)NC(=O)[C@@H](NC(=O)[C@H](CCC(=O)O)NC(=O)[C@H](CO)NC(=O)[C@@H](NC(=O)[C@@H](N)CO)C(C)C)[C@@H](C)CC)C(C)C)C(C)C)C(=O)O)C2=O)C/C1=C/C=C1\CCC[C@]2(C)[C@@H]([C@H](C)CCCC(C)(C)O)CC[C@@H]12 (stereo partly shown)
clearance (male cynomolgus monkey, plasma; intravenous, 0.02 mg/kg, single dose): 0.122 mL/min/kg

Cc1ccc(NC(=O)CCN2CCCCCC2)cc1C
larval motion (zebrafish larvae, 7 dpf; 10 µM, minute 4): 8.2 ± 1.4 pixels/frame

CNS(=O)(=O)Nc1nccc(Cc2c(C)c3ccc(Oc4ncccc4F)cc3oc2=O)c1F
IC50 (U-251 MG; cell viability, inhibitor, CellTiter-Glo; 7 days): > 1000 nM

CC(C)OCCOCc1ccc(OCC(O)CN(N=O)C(C)C)cc1 (stereo not shown)
revertant fold increase (Salmonella typhimurium; Ames test; TA1537; 500 µg/plate, without metabolic activation; baseline: solvent control): 0.8 fold

O=C(CCN1CCN(C/C=C/c2ccccc2)CC1)Nc1ccc2c(c1)CCC2
larval motion (zebrafish larvae, 7 dpf; 10 µM, minute 2): 15.8 ± 2.1 pixels/frame

c1ccc(-c2n[nH]cc2-c2ccnc3ccccc23)nc1
log2 fold change (CMK2 (Candida albicans); kinase binding, MIB/MS competition; Candida albicans lysate; 1 µM; baseline: DMSO): 0.14

Cc1ncsc1-c1ccc(C(C)NC(=O)C2CC(O)CN2C(=O)C(NC(=O)CCCCCCCCCCN2CCCC(Nc3ncc(Cl)c(Nc4ccccc4S(=O)(=O)C(C)C)n3)C2)C(C)(C)C)cc1 (stereo not shown)
log2 fold change (22Rv1; RNA-seq, refers to: SFR1 mRNA; concentration not given; baseline: DMSO): -1.58

CCCC[C@H](NC(=O)COCCOCCNC(=O)CN1CCN(CC(=O)O)CCN(CC(=O)O)CC1)C(=O)N[C@H]1CC(=O)NCCCC[C@@H](C(N)=O)NC(=O)[C@H](Cc2c[nH]c3ccccc23)NC(=O)[C@H](CCCNC(=N)N)NC(=O)[C@@H](Cc2ccccc2)NC(=O)[C@H](Cc2c[nH]cn2)NC1=O [technetium-99m labelled]
tissue uptake (C57 mouse, heart; intravenous, 0.037 MBq, 0.5 h): 1.42 ± 0.62 %ID/g

Cc1cc(OCCOCCN(C)C)cc(C(C)C)c1
larval motion (locomotor activity in dark; zebrafish larvae, 7 dpf; 10 µM, minute 7, dark phase): 0.8 ± 0.3 pixels/frame

Nc1ncc(-c2cc(-c3cnn(CC(F)(F)F)c3)ncc2F)nc1C(=O)NC1CNCC(F)C1 (stereo not shown)
remaining binding (CDK8; KINOMEscan; 1 µM; baseline: DMSO control): 90%

CCN(C(=O)c1cc(F)ccc1Oc1nncnc1N1CCC2(C1)CN([C@H](CCCN(C)CCOC)C(C)C)C2)C(C)C
GI50 (SF-268; brain; 168 h): > 10 µM

C=C(NC(=O)c1csc(-c2nc3c(cc2O)-c2nc(cs2)C(=O)NC(C(C)O)C(=O)NC(=C(C)OC)c2nc(cs2)C(=O)NC2c4nc(cs4)C(=O)NC(COC(=O)c4c5c6c(cccc6n4O)COC(=O)C(OC4CC(C)(O)C(N(C)C)C(C)O4)C2OC5)c2nc-3cs2)n1)C(N)=O (stereo not shown)
half-life (ICR mice, Streptococcus pneumoniae ATCC 49169 infected, immunocompromised, blood; intravenous, 8 mg/kg/day once daily): 294 min

COC1CN([C@H]2CC[C@H]([C@@]3(C)Oc4c(Cl)cc(C(=O)NCc5c(SC)cc(C)[nH]c5=O)c(C)c4O3)CC2)C1
log2 fold change (RNA-seq, refers to: YPEL4 mouse homolog; mouse, HT-1376 xenograft, whole blood; dose not given; baseline: vehicle): 1.48

O=C(CCN1CCN(C/C=C/c2ccccc2)CC1)Nc1ccccc1F
larval motion (locomotor activity in dark; zebrafish larvae, 7 dpf; 10 µM, minute 3, dark phase): 2.5 ± 1.1 pixels/frame

CCCC[C@H](NC(=O)CCCCCCCNC(=O)CN1CCN(CC(=O)O)CCN(CC(=O)O)CC1)C(=O)N[C@H]1CC(=O)NCCCC[C@@H](C(N)=O)NC(=O)[C@H](Cc2c[nH]c3ccccc23)NC(=O)[C@H](CCCNC(=N)N)NC(=O)[C@@H](Cc2ccccc2)NC(=O)[C@H](Cc2c[nH]cn2)NC1=O [technetium-99m labelled]
tissue uptake (C57 mouse, liver; intravenous, 0.037 MBq, 0.5 h): 2.78 ± 1.09 %ID/g

CC(C)c1ccc(N(C)c2ccc3c(c2)OCC[C@H]3CNc2cnccc2C(=O)O)cc1
IC50 (MPP-89; cell growth, CellTiter-Glo; 7 days): ≥ 10000 nM

C=CC(=O)Nc1cccc(Cn2ncc3cnc(Nc4cnn(CCOC)c4)nc32)c1
percent of control (OSR1 human; binding, KINOMEscan; 100 nM; lower = stronger binding): 93%

CC(C)Oc1ccc(N)cc1
average chemical shift perturbation (HBV core protein Cp149 dimer; solution NMR; 4 molar equivalents, pH 7.5, 295 K, average over eight residues; baseline: apo Cp149 dimer): 0.035 ppm

O=C1C2CC3CC1CC(C(=O)N1CCN(c4ccc([N+](=O)[O-])c5ncccc45)CC1)(C3)C2
revertant fold increase (Salmonella typhimurium; Ames test; TA1535; 0.78 µg/well, without S9; baseline: vehicle): 1.5

Cc1nn(-c2cccc(N)c2)c(=O)c2cnc(Nc3ccc(N4CCNCC4)cc3)nc12
IC50 (TAOK2 (Homo sapiens, UniProt Q9UL54); inhibitor): > 10000 nM

CC(C)C[C@@H](NC(=O)[C@@H](CC(C)C)NC(=O)[C@@H](CC(=O)O)NC(=O)[C@@H](CC(C)C)NC(=O)[C@@H](CC(C)C)NC(=O)[C@@H](CC(C)C)NC(=O)[C@H](NC(=O)[C@@H](CC(=O)O)NC(=O)[C@H](NC(=O)[C@H]1CCCN1C(=O)[C@@H](Cc1ccccc1)NC(=O)[C@@H](CC(C)C)NC(=O)[C@@H](CC(C)C)NC(=O)[C@@H](CC(=O)O)NC(=O)[C@@H](CC(C)C)NC(=O)[C@@H](Cc1ccc(O)cc1)NC(=O)[C@@H](C)NC(=O)[C@@H](CCCNC(=N)N)NC(=O)[C@@H](Cc1c[nH]c2ccccc12)NC(=O)[C@H]1CCCN1C(=O)[C@@H](CC(N)=O)NC(=O)[C@@H](CCC(N)=O)NC(=O)[C@@H](CC(=O)O)NC(=O)[C@@H](CC(=O)O)NC(=O)[C@@H](CSC1CC(=O)N(CCNC(=O)CN2CCN(CC(=O)O)CCN(CC(=O)O)CC2)C1=O)NC(=O)[C@@H](C)N)[C@H](C)O)[C@H](C)O)C(=O)N[C@H](Cc1c[nH]c2ccccc12)C(=O)O (stereo partly shown) [fluorine-18 labelled]
tissue uptake (female C57BL/6 mice, B16-F10 melanoma, tumor; intravenous, 8 h): 10.5 %ID/g

CCN(CC)CC(=O)Nc1cccc(-n2cc(-c3ccc4ccc(-c5cn(-c6cccc(NC(=O)CN(CC)CC)c6)nn5)cc4c3)nn2)c1
fold regulation (RCC4; PCR angiogenesis array, refers to: CXCL9; 5 x IC50, 4 h, normoxia; baseline: untreated): 1.3

CN(C)C(=O)c1ccnc(N2Cc3cn(Cc4ccc(F)cc4F)nc3C2)n1
paired-pulse ratio (mouse, hippocampal slice, Schaffer collaterals; dose not given, interstimulus interval 50; baseline: second over first response): 1.61 and 1.59 and 1.67 and 1.73 and 1.66 and 1.47 and 1.81

C=CC(=O)N1[C@@H](c2ccc3c(c2)OCO3)c2[nH]c3ccccc3c2C[C@H]1C(=O)N1CCN(C)CC1
relative co-enrichment (human cyclin E1 wild type-3xFLAG:CDK2; co-IP with TMT proteomics, refers to: DHX9; concentration not given, Q08211; baseline: wild type DMSO): 95%

CN1CCCNC(=O)c2cccc(c2)C(=O)NCCCN(C)CCCNc2cccc3c2C(=O)c2cccc(c2C3=O)NCCC1
log2 fold change (SAS; RNA-Seq, refers to: STXBP5 mRNA; 1 µM, 6 h; baseline: untreated cells): -1.52

CC1=C(Cn2cc(CN3CCC(F)(F)CC3)nn2)C(=O)c2ccccc2C1=O
IC50 (Schistosoma mansoni; parasite growth; 72 h, larva): 1480 nM

O=C1NC2(CC2)COc2ncc(F)cc2[C@H]2COCCN2c2ccn3ncc1c3n2
revertant colonies (Salmonella typhimurium; Ames test; TA102; 150 µg/plate, 48 h, with: without S9): 366 ± 15 revertants/plate
